Published values pooled from the literature.

Clc1ccc(Nc2cc3nc4ccccc4n(-c4ccc(Cl)cc4)c-3c/c2=N\OCc2ccccc2)cc1  MIC (Neisseria gonorrhoeae; bacterial growth; 1130991, multidrug-resistant; 24 h): > 30 µM
N=C(N)NCCC[C@H](NC(=O)[C@H](Cc1c[nH]c2ccccc12)NC(=O)[C@H](CCCNC(=N)N)NC(=O)[C@H](Cc1c[nH]c2ccccc12)NC(=O)[C@H](Cc1c[nH]c2ccccc12)NC(=O)[C@H](Cc1c[nH]c2ccccc12)NC(=O)[C@H](CCCNC(=N)N)NC(=O)[C@H](Cc1c[nH]c2ccccc12)NC(=O)[C@H](CCCNC(=N)N)NC(=O)CN)C(N)=O  MIC (Candida albicans; broth microdilution; SP3931, RPMI 1640-MOPS; 48 h, 30 °C): 4 µM
CC(C)C[C@@H](NC(=O)[C@H](C)NC(=O)CNC(=O)[C@@H](NC=O)C(C)C)C(=O)N[C@@H](C)C(=O)N[C@@H](C(=O)N[C@H](C(=O)N[C@@H](C(=O)N[C@@H](Cc1c[nH]c2ccccc12)C(=O)N[C@H](CC(C)C)C(=O)N[C@@H](Cc1ccc2[nH]ccc2c1)C(=O)N[C@H](CC(C)C)C(=O)N[C@@H](Cc1c[nH]c2ccccc12)C(=O)N[C@H](CC(C)C)C(=O)N[C@@H](Cc1c[nH]c2ccccc12)C(=O)NCCO)C(C)C)C(C)C)C(C)C  MIC (Streptococcus agalactiae; broth microdilution; JCM 5671): 0.53 µM
N=C(N)NCCC[C@H](NC(=O)[C@H](Cc1c[nH]c2ccccc12)NC(=O)[C@H](CCCNC(=N)N)NC(=O)[C@H](Cc1c[nH]c2ccccc12)NC(=O)[C@H](Cc1c[nH]c2ccccc12)NC(=O)[C@H](Cc1c[nH]c2ccccc12)NC(=O)[C@H](CCCNC(=N)N)NC(=O)[C@H](Cc1c[nH]c2ccccc12)NC(=O)[C@@H](N)CCCNC(=N)N)C(=O)N[C@@H](Cc1ccccc1)C(N)=O  MIC (Candida albicans; CGMCC 2.209; no added salts): 8 µM
CS(=O)(=O)Nc1ncn(-c2cc(F)c(COc3ccc(OS(=O)(=O)F)cc3)c(F)c2)n1  MIC (Mycobacterium marinum): 3.12 µM
CC[C@H](C)[C@H](NC(=O)CN)C(=O)NCC(=O)N[C@@H](C)C(=O)N[C@H](C(=O)N[C@@H](CC(C)C)C(=O)N[C@@H](CCCCN)C(=O)N[C@H](C(=O)N[C@@H](CC(C)C)C(=O)N[C@H](C(=O)N[C@H](C(=O)NCC(=O)N[C@@H](CC(C)C)C(=O)N1CCC[C@H]1C(=O)N[C@@H](C)C(=O)N[C@@H](CC(C)C)C(=O)N[C@H](C(=O)N[C@@H](CO)C(=O)N[C@@H](Cc1c[nH]c2ccccc12)C(=O)N[C@H](C(=O)N[C@@H](CCCCN)C(=O)N[C@@H](CCCNC(=N)N)C(=O)N[C@@H](CCCCN)C(=O)N[C@@H](CCCNC(=N)N)C(=O)N[C@@H](CCC(N)=O)C(=O)N[C@@H](CCC(N)=O)C(N)=O)[C@@H](C)CC)[C@@H](C)CC)[C@@H](C)O)[C@@H](C)O)C(C)C)C(C)C  MIC (Candida tropicalis; broth microdilution; CGMCC 2.197, RPMI-1640; 48 h, 30 °C): 2 µM
CC(C)(C)OCC1NC(=O)C(C(=O)NC(C(=O)NC2C(=O)N3C2SC(C)(C)C3C(=O)O)c2ccccc2)=C1O (centres unmarked)  MIC (Escherichia coli; broth microdilution; isolate IU 356 A, KPC-3, VIM-1, TEM; together with: clavulanic acid 6 µg/mL): > 200 µg/mL
CC[C@H](C)[C@H](NC(=O)[C@H](CCCNC(=N)N)NC(=O)[C@H](Cc1c[nH]c2ccccc12)NC(=O)[C@H](CCCNC(=N)N)NC(=O)[C@H](Cc1c[nH]c2ccccc12)NC(=O)[C@H](Cc1c[nH]c2ccccc12)NC(=O)[C@H](Cc1c[nH]c2ccccc12)NC(=O)[C@H](CCCNC(=N)N)NC(=O)[C@H](Cc1c[nH]c2ccccc12)NC(=O)[C@@H](N)CCCNC(=N)N)C(N)=O  MIC (Candida albicans; broth microdilution; 14936, RPMI 1640-MOPS; 48 h, 30 °C): 8 µM
CC(C)CC1NC(=O)C(C(=O)NC(C(=O)NC2C(=O)N3C2SC(C)(C)C3C(=O)O)c2ccccc2)=C1O (centres unmarked)  MIC (Escherichia coli; broth microdilution; Keio mutant JW0146-2; 18 h, ferric hydroxamate uptake gene): 50 µg/mL
CC[C@H](C)[C@H](NC(=O)[C@H](CC(C)C)NC(=O)CNC(=O)[C@H](CCCCN)NC(=O)[C@H](CC(C)C)NC(=O)[C@@H](NC(=O)[C@H](CCCCN)NC(=O)[C@@H](NC(=O)[C@@H](NC(=O)[C@H](CCC(N)=O)NC(=O)[C@H](CC(N)=O)NC(=O)[C@@H](NC(=O)[C@@H](NC(=O)[C@H](CC(=O)O)NC(=O)[C@H](CO)NC(=O)[C@@H](N)CCSC)[C@@H](C)CC)[C@@H](C)CC)[C@@H](C)CC)C(C)C)C(C)C)C(=O)N[C@@H](CC(=O)O)C(=O)N[C@@H](CCCCN)C(=O)N[C@@H](CC(C)C)C(=O)N[C@H](C(=O)N[C@@H](CCCCN)C(=O)N[C@@H](CCCCN)C(=O)O)[C@@H](C)O  MIC (Micrococcus luteus; broth microdilution; DSM 1790): 20 µM
CC(C)(C)Oc1ccc(CC2NC(=O)C(C(=O)NC(C(=O)NC3C(=O)N4C3SC(C)(C)C4C(=O)O)c3ccccc3)=C2O)cc1 (centres unmarked)  MIC (Escherichia coli; broth microdilution; isolate IU 356 A, KPC-3, VIM-1, TEM; together with: clavulanic acid 6 µg/mL): > 200 µg/mL
N=C(N)NCCC[C@H](NC(=O)[C@H](Cc1c[nH]c2ccccc12)NC(=O)[C@H](CCCNC(=N)N)NC(=O)[C@H](Cc1c[nH]c2ccccc12)NC(=O)[C@H](Cc1c[nH]c2ccccc12)NC(=O)[C@H](Cc1c[nH]c2ccccc12)NC(=O)[C@H](CCCNC(=N)N)NC(=O)[C@H](Cc1c[nH]c2ccccc12)NC(=O)[C@@H](N)CCCNC(=N)N)C(=O)N[C@@H](Cc1c[nH]c2ccccc12)C(N)=O  MIC (Candida albicans; broth microdilution; CGMCC 2.209, RPMI 1640-MOPS; 48 h, 30 °C, together with: NH4Cl 6 µM): 8 µM
CSCC[C@H](NC(=O)[C@H](CCCCN)NC(=O)[C@H](CCSC)NC(=O)[C@H](CCCCN)NC(=O)[C@H](CC(C)C)NC(=O)[C@H](CC(C)C)NC(=O)[C@H](CCCNC(=N)N)NC(=O)[C@H](CC(=O)O)NC(=O)[C@H](CCCCN)NC(=O)[C@H](Cc1c[nH]c2ccccc12)NC(=O)[C@H](Cc1ccc(O)cc1)NC(=O)[C@H](Cc1ccccc1)NC(=O)[C@H](CCCNC(=N)N)NC(=O)[C@@H]1CCCN1C(=O)[C@@H](NC(=O)[C@H](CCCNC(=N)N)NC(=O)[C@@H](N)CO)C(C)C)C(=O)N[C@@H](C)C(=O)O  MIC (Micrococcus luteus; NCTC 2665): 100 µg/mL
CC[C@H](C)CCCCC(=O)N[C@@H](CCN)C(=O)N[C@H](C(=O)N[C@@H](CCN)C(=O)N[C@H]1CCNC(=O)[C@H]([C@@H](C)O)NC(=O)[C@H](CCN)NC(=O)[C@H](CCN)NC(=O)[C@H](CC(C)C)NC(=O)[C@@H](Cc2ccccc2)NC(=O)[C@H](CCN)NC1=O)[C@@H](C)O  MIC (Micrococcus luteus; broth microdilution; ATCC 7468; 24 h): < 1 µM
CC1(C)SC2C(NC(=O)C(NC(=O)C3=C(O)C(c4ccccc4)NC3=O)c3ccccc3)C(=O)N2C1C(=O)O (centres unmarked)  MIC (Escherichia coli; broth microdilution; JW0790-2 fiu deletion mutant; ferric iron uptake gene): 25 µg/mL
CCOC(=O)CNC(=O)CO/N=c1\cc2n(-c3ccc(Cl)cc3)c3ccccc3nc-2cc1Nc1ccc(Cl)cc1  MIC (Neisseria gonorrhoeae; bacterial growth; 700825, streptomycin-resistant; 24 h): > 30 µM
CC[C@H](C)[C@H](NC(=O)[C@H](CCCCN)NC(=O)[C@@H](NC(=O)[C@H](Cc1ccc(O)cc1)NC(=O)[C@H](CCCCN)NC(=O)[C@H](CCCCN)NC(=O)CNC(=O)[C@H](CCCCN)NC(=O)[C@@H](NC(=O)[C@H](C)NC(=O)[C@H](CC(C)C)NC(=O)[C@H](Cc1c[nH]c2ccccc12)NC(=O)CNC(=O)[C@@H](NC(=O)[C@H](Cc1ccccc1)NC(=O)[C@H](CCCCN)NC(=O)[C@H](CC(C)C)NC(=O)[C@H](Cc1ccccc1)NC(=O)[C@H](C)NC(=O)CNC(=O)[C@@H](N)CCSC)C(C)C)[C@@H](C)O)C(C)C)C(=O)N[C@@H](C)C(=O)N[C@@H](Cc1c[nH]c2ccccc12)C(=O)N[C@@H](CC(=O)O)C(=O)N[C@@H](Cc1c[nH]cn1)C(=O)N[C@@H](CCCCN)C(=O)NCC(=O)N[C@H](C(=O)N[C@H](C(=O)N[C@@H](CCSC)C(=O)N[C@@H](CCCCN)C(=O)N[C@@H](Cc1c[nH]c2ccccc12)C(=O)N[C@@H](CC(C)C)C(=O)N[C@@H](CC(N)=O)C(=O)N[C@@H](C)C(=O)NCC(=O)N[C@@H](CCC(N)=O)C(=O)N[C@H](C(=O)N[C@@H](Cc1ccccc1)C(=O)N[C@H](C(=O)N[C@@H](Cc1c[nH]c2ccccc12)C(=O)N[C@H](C(=O)N[C@@H](Cc1ccc(O)cc1)C(=O)N[C@@H](CCC(=O)O)C(=O)N[C@@H](CCC(N)=O)C(=O)N[C@H](C(=O)N[C@@H](CCCCN)C(=O)N[C@@H](CCCCN)C(=O)N[C@@H](CC(C)C)C(=O)N[C@@H](Cc1c[nH]c2ccccc12)C(=O)N[C@H](C(=O)O)[C@@H](C)O)[C@@H](C)CC)C(C)C)[C@@H](C)O)[C@@H](C)O)[C@@H](C)CC)[C@@H](C)O  MIC (Staphylococcus pseudintermedius; broth microdilution; 37 °C): 3.9 µg/mL
C[C@H](NC(=O)[C@H](CCCNC(=N)N)NC(=O)[C@H](Cc1c[nH]c2ccccc12)NC(=O)[C@H](CCCNC(=N)N)NC(=O)[C@H](Cc1c[nH]c2ccccc12)NC(=O)[C@H](Cc1c[nH]c2ccccc12)NC(=O)[C@H](Cc1c[nH]c2ccccc12)NC(=O)[C@H](CCCNC(=N)N)NC(=O)[C@H](Cc1c[nH]c2ccccc12)NC(=O)[C@@H](N)CCCNC(=N)N)C(N)=O  MIC (Candida tropicalis; broth microdilution; CGMCC 2.192, RPMI 1640-MOPS; 48 h, 30 °C): 2 µM
CC(C)C[C@H](NC(=O)[C@H](CCCCN)NC(=O)[C@H](CO)NC(=O)[C@H](C)NC(=O)[C@H](C)NC(=O)CNC(=O)[C@H](CC(C)C)NC(=O)[C@H](CCCCN)NC(=O)[C@H](CC(C)C)NC(=O)[C@H](CC(C)C)NC(=O)[C@H](CC(C)C)NC(=O)CNC(=O)[C@H](CO)NC(=O)[C@H](Cc1c[nH]c2ccccc12)NC(=O)[C@@H](N)CCCCN)C(N)=O  MIC (Candida tropicalis; broth microdilution; ATCC 13803; 44 h, 37 °C): 4 to 8 µM
CC[C@H](C)[C@H](NC(=O)[C@H](CCCNC(=N)N)NC(=O)[C@H](Cc1c[nH]c2ccccc12)NC(=O)[C@H](CCCNC(=N)N)NC(=O)[C@H](Cc1c[nH]c2ccccc12)NC(=O)[C@H](Cc1c[nH]c2ccccc12)NC(=O)[C@H](Cc1c[nH]c2ccccc12)NC(=O)[C@H](CCCNC(=N)N)NC(=O)[C@H](Cc1c[nH]c2ccccc12)NC(=O)[C@H](CCCNC(=N)N)NC(=O)CN)C(N)=O  MIC (Candida tropicalis; broth microdilution; CGMCC 2.192, RPMI 1640-MOPS; 48 h, 30 °C): 4 µM
CC1(C)SC2C(NC(=O)C(NC(=O)C3=C(O)C4CCCN4C3=O)c3ccccc3)C(=O)N2C1C(=O)O (centres unmarked)  MIC (Escherichia coli; broth microdilution; Keio mutant JW2142-1): 25 µg/mL
N=C(N)NCCC[C@H](NC(=O)CN)C(=O)N[C@@H](Cc1c[nH]c2ccccc12)C(=O)N[C@@H](CCCNC(=N)N)C(=O)N[C@@H](Cc1c[nH]c2ccccc12)C(=O)N[C@@H](Cc1c[nH]c2ccccc12)C(=O)N[C@@H](Cc1c[nH]c2ccccc12)C(=O)N[C@@H](CCCNC(=N)N)C(=O)N[C@@H](Cc1c[nH]c2ccccc12)C(=O)N[C@@H](CCCNC(=N)N)C(=O)N[C@@H](Cc1c[nH]c2ccccc12)C(N)=O  MIC (Candida tropicalis; broth microdilution; CGMCC 2.192, RPMI 1640-MOPS; 48 h, 30 °C): 4 µM
O=C(CO/N=c1\cc2n(-c3ccc(Cl)cc3)c3ccccc3nc-2cc1Nc1ccc(Cl)cc1)NCc1ccc2c(c1)CCO2  MIC (Neisseria gonorrhoeae; bacterial growth; 1130991, multidrug-resistant; 24 h): > 30 µM
CC1(C)SC2C(NC(=O)C(NC(=O)C3=C(O)C(Cc4ccc(F)cc4)NC3=O)c3ccccc3)C(=O)N2C1C(=O)O (centres unmarked)  MIC (Escherichia coli; ATCC 35218, low-level TEM-1; without clavulanic acid): > 200 µg/mL
O=C(O)CO/N=c1\cc2n(-c3ccc(Cl)cc3)c3ccccc3nc-2cc1Nc1ccc(Cl)cc1  MIC (Neisseria gonorrhoeae; bacterial growth; 1130991, multidrug-resistant; 24 h): 0.94 µM
CC(C)[C@H](NC(=O)[C@H](CCCNC(=N)N)NC(=O)[C@H](Cc1c[nH]c2ccccc12)NC(=O)[C@H](CCCNC(=N)N)NC(=O)[C@H](Cc1c[nH]c2ccccc12)NC(=O)[C@H](Cc1c[nH]c2ccccc12)NC(=O)[C@H](Cc1c[nH]c2ccccc12)NC(=O)[C@H](CCCNC(=N)N)NC(=O)[C@H](Cc1c[nH]c2ccccc12)NC(=O)[C@@H](N)CCCNC(=N)N)C(N)=O  MIC (Candida tropicalis; broth microdilution; CGMCC 2.192, RPMI 1640-MOPS; 48 h, 30 °C): 4 µM
